Results from different studies.
Parts stem from different laboratories: compare values within a part only. Positions count from the first letter of the parent shown.

Block 1 — technique: DHFR PCA, deep sequencing; sample: yeast; with: (+)-ABA 0.032 µM; relative to: wild-type fitted maximum; direction: higher = stronger binding
Target: ABI1, truncated, D143A, DHFR fusion (Arabidopsis thaliana)
Notes: methotrexate growth selection, single substitutions
Starting sequence: PYL1, truncated, DHFR fusion (Arabidopsis thaliana); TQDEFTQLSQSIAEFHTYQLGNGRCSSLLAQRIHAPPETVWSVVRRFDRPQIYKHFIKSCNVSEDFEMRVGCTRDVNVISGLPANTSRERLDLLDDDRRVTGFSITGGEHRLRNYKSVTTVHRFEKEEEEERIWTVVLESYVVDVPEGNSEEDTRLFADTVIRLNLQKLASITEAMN; partner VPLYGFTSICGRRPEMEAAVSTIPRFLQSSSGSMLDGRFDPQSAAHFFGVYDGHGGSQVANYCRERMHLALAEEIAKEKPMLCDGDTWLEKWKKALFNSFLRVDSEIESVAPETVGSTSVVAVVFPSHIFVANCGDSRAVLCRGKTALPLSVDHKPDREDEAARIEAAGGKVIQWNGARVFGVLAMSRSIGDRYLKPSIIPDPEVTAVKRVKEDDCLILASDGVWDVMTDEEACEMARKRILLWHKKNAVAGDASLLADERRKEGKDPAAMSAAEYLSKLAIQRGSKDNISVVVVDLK
| Change | relative binding score [%] |
| --- | --- |
| G108I | -4.67 |
| V70E | 9.61 |
| G23V | 2.94 |
| W134R | 5.3 |
| Q51R | 2.44 |
| R113Q | 46.2 |
| K168R | 17.6 |
| V100F | 1.23 |
| G148E | 1.43 |
| D75K | 19.8 |

Block 2 — target: CCND3, cyclin fold, Cln2 fusion (human); technique: yeast growth competition, sequencing; sample: yeast; notes: weak parent motif; relative to: not given; direction: higher = stronger binding
Starting sequence: E2F1 docking peptide (human); PPVKRRLDFETDH; partner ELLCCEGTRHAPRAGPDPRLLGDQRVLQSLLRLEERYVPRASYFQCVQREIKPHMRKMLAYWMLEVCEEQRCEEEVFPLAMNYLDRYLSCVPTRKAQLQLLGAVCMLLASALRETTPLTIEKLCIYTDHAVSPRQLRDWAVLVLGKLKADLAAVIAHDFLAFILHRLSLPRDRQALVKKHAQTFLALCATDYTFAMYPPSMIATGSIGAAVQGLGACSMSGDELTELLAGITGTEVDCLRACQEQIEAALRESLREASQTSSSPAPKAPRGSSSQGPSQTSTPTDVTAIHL
| Change | normalised enrichment score |
| --- | --- |
| D12F | 0.295 |
| D8W | 0.294 |
| D8K | -0.0236 |
| P2M | 0.202 |
| P2D | 0.107 |
| D12P | 0.429 |
| T11E | 0.691 |
| E10Y | 0.112 |
| V3R | 0.115 |
| P2I | 0.254 |
| F9K | -0.141 |
| T11W | 0.535 |
| D12M | 0.253 |
| V3Y | 0.22 |
| D8S | 0.479 |
| R5Q | 0.0151 |
| D12E | 0.34 |

Block 3 — technique: protein binding microarray; form: double-stranded DNA, one strand shown; sample: in vitro; tested at: not given; relative to: not given; direction: higher = stronger binding
Target: Histone acetyltransferase KAT6A, winged helix 2, GST fusion (KAT6A, Homo sapiens, UniProt Q92794, residues 85-181)
Notes: 8-mer, flanks averaged, mean of 2 arrays, mostly near background
Target sequence (chain): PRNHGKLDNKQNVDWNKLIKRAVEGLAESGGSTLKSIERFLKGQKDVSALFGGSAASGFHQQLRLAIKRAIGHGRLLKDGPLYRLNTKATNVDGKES
| Sequence | E-score |
| --- | --- |
| CGCGGGCC | 0.204 |
| GGTAGACC | -0.0433 |
| AAGACTTA | -0.197 |
| ATTAGTTG | 0.068 |
| AGGTACAT | -0.171 |
| ATAGGAAA | -0.0159 |
| ATCGGCGG | 0.149 |
| GCCAATAC | -0.116 |
| CAGGCCCG | -0.0444 |
| ACGAAACG | -0.0718 |
| ACCTCTGC | -0.109 |
| GAACCTGA | -0.195 |
| GTCCAATA | -0.0247 |
| ATGCTAAA | 0.192 |
| CTTAAGCA | 0.0741 |
| CTAACCCC | -0.174 |
| AACTATCC | -0.136 |
| AGTTATCA | 0.0183 |
| CCGCCCAA | -0.0189 |
| ATTTCTAG | 0.03 |
| CTGTATAA | -0.0681 |
| TAAGAGGA | 0.0166 |
| ATATCGGA | -0.0108 |
| CTAGCTAG | 0.0933 |

Block 4 — target: JUNB, bZIP domain (human); technique: DHFR protein complementation; sample: yeast; relative to: wild-type JUN-FOS pair; direction: higher = stronger binding
Notes: single substitutions, most at no-binding floor
Starting sequence: JUN, bZIP domain (human); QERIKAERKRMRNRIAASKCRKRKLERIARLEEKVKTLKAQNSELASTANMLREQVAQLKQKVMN; partner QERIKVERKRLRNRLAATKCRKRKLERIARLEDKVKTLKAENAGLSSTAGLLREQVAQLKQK
| Change | binding fitness |
| --- | --- |
| V35T | -1.57 natural log |
| E32C | -1.29 natural log |
| Q55K | -1.26 natural log |
| K36L | -1.31 natural log |
| A46C | -1.07 natural log |
| L31N | -1.48 natural log |
| Q55Y | -1.52 natural log |
| M51E | -1.08 natural log |
| A40Q | -0.838 natural log |
| K36C | -1.29 natural log |
| A57W | -1.41 natural log |
| A49H | -1.44 natural log |
| L52S | -1.55 natural log |
| R30I | -1.13 natural log |
| A49C | -0.161 natural log |
| E54G | -1.27 natural log |
| Q55P | -1.53 natural log |
| R30W | -1.17 natural log |
| T48M | -1.1 natural log |

Block 5 — technique: universal PBM; form: double-stranded DNA, one strand shown; sample: in vitro; tested at: 600 nM; direction: higher = stronger binding
Target: Sal-like protein 4, full length isoform A (SALL4, Homo sapiens, UniProt Q9UJQ4, residues 1-1053)
UniProt Q9UJQ4, sequence (whole entry, looked up): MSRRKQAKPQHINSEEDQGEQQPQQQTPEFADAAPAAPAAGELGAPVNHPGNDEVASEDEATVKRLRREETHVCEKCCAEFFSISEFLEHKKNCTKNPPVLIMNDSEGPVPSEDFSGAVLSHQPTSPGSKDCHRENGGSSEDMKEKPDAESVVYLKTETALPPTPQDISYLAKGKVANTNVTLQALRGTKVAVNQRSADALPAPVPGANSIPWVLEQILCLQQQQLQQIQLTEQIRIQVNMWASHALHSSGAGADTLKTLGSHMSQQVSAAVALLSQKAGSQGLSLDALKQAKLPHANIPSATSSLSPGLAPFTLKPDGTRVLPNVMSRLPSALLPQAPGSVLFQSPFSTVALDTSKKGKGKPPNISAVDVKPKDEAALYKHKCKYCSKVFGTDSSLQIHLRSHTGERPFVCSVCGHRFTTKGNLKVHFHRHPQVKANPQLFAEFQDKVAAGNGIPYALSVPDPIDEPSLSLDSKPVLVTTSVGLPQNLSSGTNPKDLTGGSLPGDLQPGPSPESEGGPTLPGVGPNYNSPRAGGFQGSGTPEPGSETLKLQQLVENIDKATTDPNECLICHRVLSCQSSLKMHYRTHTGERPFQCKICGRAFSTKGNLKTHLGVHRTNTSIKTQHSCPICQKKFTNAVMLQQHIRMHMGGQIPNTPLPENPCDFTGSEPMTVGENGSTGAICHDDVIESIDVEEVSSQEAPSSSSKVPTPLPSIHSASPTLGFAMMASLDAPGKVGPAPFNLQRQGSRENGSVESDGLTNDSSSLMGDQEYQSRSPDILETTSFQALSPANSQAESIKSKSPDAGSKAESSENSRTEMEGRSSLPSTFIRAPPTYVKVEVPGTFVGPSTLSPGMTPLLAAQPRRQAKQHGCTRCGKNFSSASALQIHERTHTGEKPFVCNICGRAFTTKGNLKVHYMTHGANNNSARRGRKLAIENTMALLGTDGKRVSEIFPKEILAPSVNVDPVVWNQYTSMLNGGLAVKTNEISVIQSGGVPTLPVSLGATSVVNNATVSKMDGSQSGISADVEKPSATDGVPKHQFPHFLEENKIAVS
Notes: 8-mer, flanks averaged, mean of replicates
| Sequence | E-score |
| --- | --- |
| CACCATAC | -0.0515 |
| AAGGTTAC | -0.022 |
| ATCCGGCA | -0.0903 |
| AGCTTCCG | -0.259 |
| ACGTAAGC | -0.164 |
| CACCGCCC | -0.236 |
| ACAGCTAC | -0.0439 |
| GAGATAAA | 0.214 |
| GTCCGTGA | -0.228 |
| AAACAAGT | 0.169 |
| ACAAGATA | 0.183 |
| GGGGTTCA | -0.237 |
| GCGAGCTA | -0.0911 |
| AGTGACCG | -0.261 |
| GTCCAGCA | -0.173 |
| TCAATGGA | 0.0626 |
| CATGCCTA | -0.0658 |
| CGATTCGC | -0.0977 |
| GAAGGATC | -0.0799 |
| ACGCGAGC | -0.184 |
| CTGCGCCC | -0.419 |
| AAATGCGC | -0.0297 |

Block 6 — target: BIRC6 UBC core domain (UniProt Q9NR09); technique: yeast two-hybrid; sample: yeast; notes: mostly zero background; relative to: not given; direction: higher = stronger interaction
B1: ZNRF3 RING domain (UniProt Q9ULT6); chain DTLSSSSTSDCAICLEKYIDGEELRVIPCTHRFHRKCVDPWLLQHHTCPHCRHNIIEQKGNP
B2: RNF24 RING domain (UniProt Q9Y225); chain KVKELNLHELCAVCLEDFKPRDELGICPCKHAFHRKCLIKWLEVRKVCPLCNMPVLQLAQLH
B3: DTX1 RING domain (UniProt Q86Y01); chain QKVKNPPDEDCTICMERLVTASGYEGVLRHKGVRPELVGRLGRCGHMYHLLCLVAMYSNGNKDGSLQCPTCKAIYGEKTGTQ
B4: RNF135 RING domain (UniProt Q8IUD6); chain PVWLAEDDLGCIICQGLLDWPATLPCGHSFCRHCLEALWGARDARRWACPTCRQGAAQQPHLR
B5: TRIM48 RING domain (UniProt Q8IWZ4); chain ISQVFQRELTCPICMNYFIDPVTIDCGHSFCRPCFYLNWQDIPILTQCFECIKTIQQRNLKT
Target sequence (chain): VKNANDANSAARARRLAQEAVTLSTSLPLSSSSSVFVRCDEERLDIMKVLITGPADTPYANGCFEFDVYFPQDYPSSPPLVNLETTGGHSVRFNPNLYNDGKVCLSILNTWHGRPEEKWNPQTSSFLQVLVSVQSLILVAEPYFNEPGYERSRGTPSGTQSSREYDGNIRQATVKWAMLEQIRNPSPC
| Molecule | lacZ reporter activity |
| --- | --- |
| NTAPSLTVPECAICLQTCVHPVSLPCKHVFCYLCVKGASWLGKRCALCRQEIPEDFLDK (RNF146 RING domain (UniProt Q9NTX7)) | 0 |
| KLWDINAHITCRLCSGYLIDATTVTECLHTFCRSCLVKYLEENNTCPTCRIVIHQSHPLQ (PCGF3 RING domain (UniProt Q3KNV8)) | 0 |
| B1 (ZNRF3 RING domain) | 0 |
| B2 (RNF24 RING domain) | 0 |
| B3 (DTX1 RING domain) | 0 |
| QLRRLQEERTCKVCLDRAVSIVFVPCGHLVCAECAPGLQLCPICRAPVRSRVRTF (BIRC7 RING domain (UniProt Q96CA5)) | 0 |
| B4 (RNF135 RING domain) | 0 |
| KITELNPHLMCVLCGGYFIDATTIIECLHSFCKTCIVRYLETSKYCPICDVQVHKTRPLL (BMI1 RING domain (UniProt P35226)) | 0 |
| B5 (TRIM48 RING domain) | 0 |

Block 7 — technique: two-hybrid; notes: weak activation fusion; relative to: out of 4 tests; direction: higher = firmer interaction
Partner: ARF17 (Arabidopsis thaliana, UniProt Q84WU6)
UniProt Q84WU6, sequence (whole entry, looked up): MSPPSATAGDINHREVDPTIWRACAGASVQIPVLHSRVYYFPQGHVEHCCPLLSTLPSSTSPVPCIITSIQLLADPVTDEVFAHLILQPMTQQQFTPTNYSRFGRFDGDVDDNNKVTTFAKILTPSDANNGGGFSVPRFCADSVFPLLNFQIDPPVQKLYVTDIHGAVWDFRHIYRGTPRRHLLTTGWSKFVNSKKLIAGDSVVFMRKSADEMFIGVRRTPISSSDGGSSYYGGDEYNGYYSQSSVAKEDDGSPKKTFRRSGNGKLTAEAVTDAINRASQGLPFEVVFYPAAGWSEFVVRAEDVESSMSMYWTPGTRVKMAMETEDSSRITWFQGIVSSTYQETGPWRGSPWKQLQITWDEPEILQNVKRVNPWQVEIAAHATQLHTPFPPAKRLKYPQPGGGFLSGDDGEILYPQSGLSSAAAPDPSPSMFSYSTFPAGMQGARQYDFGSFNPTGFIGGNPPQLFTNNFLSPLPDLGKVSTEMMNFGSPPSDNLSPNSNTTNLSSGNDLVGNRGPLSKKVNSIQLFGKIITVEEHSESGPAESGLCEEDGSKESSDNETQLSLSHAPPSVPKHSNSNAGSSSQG
B6: ARF10 575-693 (Arabidopsis thaliana, UniProt Q9SKN5); chain LQGLETGHCKVFMESEDVGRTLDLSVIGSYQELYRKLAEMFHIEERSDLLTHVVYRDANGVIKRIGDEPFSDFMKATKRLTIKMDIGGDNVRKTWITGIRTGENGIDASTKTGPLSIFA
B7: ARF9 519-638 (Arabidopsis thaliana, UniProt Q9XED8); chain SSSTRSRTKVQMQGVPVGRAVDLNALKGYNELIDDIEKLFDIKGELRSRNQWEIVFTDDEGDMMLVGDDPWPEFCNMVKRIFIWSKEEVKKMTPGNQLRMLLREVETTLTTTSKTDNHSN
B8: ARF4 660-788 (Arabidopsis thaliana, UniProt Q9ZTX9); chain QSSSKRICTKVHKQGSQVGRAIDLSRLNGYDDLLMELERLFNMEGLLRDPEKGWRILYTDSENDMMVVGDDPWHDFCNVVWKIHLYTKEEVENANDDNKSCLEQAALMMEASKSSSVSQPDSSPTITRV
B9: ARF6 790-935 (Arabidopsis thaliana, UniProt Q9ZTX8); chain SENPQSNTFVKVYKSGSFGRSLDISKFSSYHELRSELARMFGLEGQLEDPVRSGWQLVFVDRENDVLLLGDDPWPEFVSSVWCIKILSPQEVQQMGKRGLELLNSAPSSNNVDKLPSNGNCDDFGNRSDPRNLGNGIASVGGSFNY
B10: IAA33 (Arabidopsis thaliana, UniProt Q9FKM7); chain MNSFEPQSQDSLQRRFHQDNSTTQQPRDTTTPFIPKPASKNHNNSNSSSGAAGRSFQGFGLNVEDDLVSSVVPPVTVVLEGRSICQRISLDKHGSYQSLASALRQMFVDGADSTDDLDLSNAIPGHLIAYEDMENDLLLAGDLTWKDFVRVAKRIRILPVKGNTRQVKRNE
B11: IAA34 (Arabidopsis thaliana, UniProt Q9C5X0); chain MYCSDPPHPLHLVASDKQQKDHKLILSWKKPTMDSDPLGVFPNSPKYHPYYSQTTEFGGVIDLGLSLRTIQHEIYHSSGQRYCSNEGYRRKWGYVKVTMDGLVVGRKVCVLDHGSYSTLAHQLEDMFGMQSVSGLRLFQMESEFCLVYRDEEGLWRNAGDVPWNEFIESVERLRITRRNDAVLPF
| Molecule | positive tests |
| --- | --- |
| B6 (ARF10 575-693) | 0 |
| B7 (ARF9 519-638) | 1 |
| B8 (ARF4 660-788) | 0 |
| B9 (ARF6 790-935) | 0 |
| B10 (IAA33) | 1 |
| B11 (IAA34) | 1 |

A few entries again (block 4):
| Change | binding fitness |
| --- | --- |
| M51E | -1.08 natural log |
| A40Q | -0.838 natural log |
| K36C | -1.29 natural log |
| A57W | -1.41 natural log |
| A49H | -1.44 natural log |
| L52S | -1.55 natural log |
| R30I | -1.13 natural log |
| A49C | -0.161 natural log |
| E54G | -1.27 natural log |
| Q55P | -1.53 natural log |
